Results pooled from the literature.
Protocols differ between the studies behind these lines. Numbers after ± are the reported error.
Organism: Salmonella typhimurium

For `O=[N+]([O-])c1ccc(NC2CCNCC2)c(C(F)(F)F)c1`, the induction factor was 0.8 (genotoxicity, SOS/umu test; TA1535/pSK1002; 0.125 mg/mL, 4 h, without S9, full range).
`COc1cccc(-c2n[nH]c(SCc3ccccn3)n2)c1OC` — result for “revertant colonies per plate”: 21 (Ames test, plate incorporation; TA98; 1.0 mg/plate, without S9).
`CC(C)N(N=O)C(C)C` — result for “revertant colonies per plate”: 26 ± 2 (mutagenicity, Ames plate incorporation; TA1535; 150 µg/plate, without S9, methanol).
`CC(=O)N1CCC(C(=O)N2CCN3C(=O)c4cc(-c5ccccc5)ccc4NC(=O)C3C2)CC1` (stereo not drawn): “fold increase in revertants” 1.8 (TA1537; 5000 µg/plate; reference: vehicle).
The induction factor of `OC(CCN1CC=C(c2ccc(F)cc2)CC1)c1ccc(F)c2ccccc12` (stereo not drawn) is reported as 1 (genotoxicity, SOS/umu test; TA1535/pSK1002; 0.002 mg/mL, 4 h, without S9, full range).
`O=NN1CCN(C2CCCC2)CC1` — result for “revertant colonies per plate”: 21 ± 4 (mutagenicity, Ames plate incorporation; TA98; 5000 µg/plate, 3 d, without S9, methanol).
`Cc1cc(C(=O)NC(C)(C)COc2cccc3c2C(N)=NS(=O)(=O)N3)cc(C)n1` gave a revertant ratio of 1 (Ames test, confirmatory; TA100; 5000 µg/plate, added: rat liver S9; reference: solvent control).
With `Fc1ccc(C2=CCNCC2)cc1` the survival was 101% (SOS/umu test; TA1535/pSK1002; 0.016 mg/mL, 4 h, with S9, full range).
`CNC(=O)c1c(N(C)N=O)ncn1C`: “revertant colonies per plate” 19.3 ± 4 (mutagenicity, Ames plate incorporation; TA98; 150 µg/plate, without S9, methanol).
